Results pooled from the literature.
Values joined by “and” are separate records of one study, mostly repeats; a detail may differ. ± marks the error that the study gave.
Chain of UniProt P49841 (whole entry, looked up): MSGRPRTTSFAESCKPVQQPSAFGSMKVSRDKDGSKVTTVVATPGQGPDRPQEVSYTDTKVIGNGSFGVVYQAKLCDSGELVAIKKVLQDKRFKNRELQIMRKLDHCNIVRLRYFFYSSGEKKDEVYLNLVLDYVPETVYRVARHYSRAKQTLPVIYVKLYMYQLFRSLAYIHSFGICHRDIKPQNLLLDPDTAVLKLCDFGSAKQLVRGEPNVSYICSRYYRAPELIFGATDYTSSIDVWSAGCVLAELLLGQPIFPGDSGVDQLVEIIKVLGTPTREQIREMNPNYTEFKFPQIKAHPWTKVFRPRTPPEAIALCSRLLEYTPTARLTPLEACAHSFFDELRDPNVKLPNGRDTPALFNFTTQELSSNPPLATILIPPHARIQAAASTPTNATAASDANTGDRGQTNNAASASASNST
Chain of UniProt P30530 (whole entry, looked up): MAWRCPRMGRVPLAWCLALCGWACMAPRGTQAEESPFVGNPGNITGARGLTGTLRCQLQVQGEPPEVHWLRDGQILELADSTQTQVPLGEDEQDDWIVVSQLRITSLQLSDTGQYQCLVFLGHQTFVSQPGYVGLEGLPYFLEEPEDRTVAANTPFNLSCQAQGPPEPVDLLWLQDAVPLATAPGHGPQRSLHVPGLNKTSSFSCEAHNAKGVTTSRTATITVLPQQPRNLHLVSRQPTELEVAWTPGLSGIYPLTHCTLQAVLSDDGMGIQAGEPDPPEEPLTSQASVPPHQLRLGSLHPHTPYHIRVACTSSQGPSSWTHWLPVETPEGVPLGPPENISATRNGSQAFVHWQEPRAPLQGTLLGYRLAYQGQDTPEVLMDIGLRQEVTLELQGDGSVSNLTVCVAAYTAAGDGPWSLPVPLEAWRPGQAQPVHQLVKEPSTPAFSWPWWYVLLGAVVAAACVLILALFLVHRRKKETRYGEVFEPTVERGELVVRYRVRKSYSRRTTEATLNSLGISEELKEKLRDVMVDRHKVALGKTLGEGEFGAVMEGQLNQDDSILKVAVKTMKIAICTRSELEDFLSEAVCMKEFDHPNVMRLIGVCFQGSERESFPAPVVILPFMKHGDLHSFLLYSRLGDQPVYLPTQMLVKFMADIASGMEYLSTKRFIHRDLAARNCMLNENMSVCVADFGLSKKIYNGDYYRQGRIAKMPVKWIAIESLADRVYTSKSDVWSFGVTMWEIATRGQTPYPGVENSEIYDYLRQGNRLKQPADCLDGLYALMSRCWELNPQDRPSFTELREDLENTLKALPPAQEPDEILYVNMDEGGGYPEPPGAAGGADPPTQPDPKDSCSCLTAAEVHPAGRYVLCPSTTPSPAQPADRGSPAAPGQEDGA

| SMILES | target or system | test | test system | setting | scale | measurement | value |
| --- | --- | --- | --- | --- | --- | --- | --- |
| CC(C)(C)C(=O)OCOP(=O)(OCOC(=O)C(C)(C)C)C1CCCN(O)C1=O (stereo not shown) | HT-29 |  |  |  |  | GI50 | 0.335 µM |
| O=C1NC(=O)c2c1c1cc(F)c[n+]3c1c1c2c2cc(O)ccc2[n]1[Ru-4]312([N]=C=S)[S+]3CC[S+]1CC[S+]2CC3 (stereo not shown) | AXL (Homo sapiens, UniProt P30530) | enzyme activity |  | 100 nM, human enzyme, added: 10 µM ATP | relative to: untreated | remaining activity | 63% |
| O=C(O)c1ccc(-c2nc(-c3ccccc3Cl)c3sccn23)cc1 | CD34+ hematopoietic stem cells |  |  | 10 µM, day 12, without TPO |  | CD41-positive cell number | 5.43e+06 and 4.92e+06 |
| CN(C)[C@H]1C[C@@]23CC[C@@]4(O2)C(=CC[C@]2(C)[C@@H](c5ccc6ccncc6c5)CC[C@H]24)C=C3[C@@H](O)[C@@H]1O | GSK3B (Homo sapiens, UniProt P49841) | ATP probe labelling, inhibitor, KiNativ profiling |  | 0.1 µM |  | inhibition | 8.3% |
| CC(C)[C@H](NC(=O)[C@H](CCCNC(=N)N)NC(=O)[C@@H]1CCCN1C(=O)[C@@H](NC(=O)[C@H](C)NC(=O)[C@H](Cc1ccc(O)cc1)NC(=O)[C@H](CCC(N)=O)NC(=O)[C@H](CCCCN)NC(=O)[C@H](CCCNC(=N)N)NC(=O)[C@@H]1CCCN1C(=O)[C@H](CCC(=O)O)NC(=O)[C@@H](NC(=O)[C@H](C)N)[C@@H](C)O)[C@@H](C)O)C(=O)N[C@@H](Cc1ccccc1)C(=O)N[C@@H](Cc1c[nH]c2ccccc12)C(=O)N[C@H](C(=O)N[C@@H](CC(=O)O)C(=O)N[C@@H](C)C(=O)N1CCC[C@H]1C(=O)NCC(=O)NCCOCCOCCOCCOCCOCCOCCOCCOCCOCCOCCOCCOCCC(=O)N[C@@H](CS)C(N)=O)[C@@H](C)O | SW480 | phage binding |  | 10 min, 37 °C | relative to: control phage | selectivity ratio | 61 ± 2.7 |
| O=C1C=CC(=O)c2c(O)cccc21 | HuCC-A1 | MTT |  |  | relative to: IC50 MRC-5 over IC50 HuCC-A1 | selectivity index | 2.12 |
| O=C(C[Se]C(=O)c1cccs1)Nc1cccc(C(F)(F)F)c1 | NCI60 CNS cancer panel | five-dose screen |  |  |  | GI50 | 1.71 µM |
| CC(C)C12OC1C1OC13C1(C)CCC4=C(COC4=O)C1CC1OC13C2OC(=O)CCC(=O)OC1OC(CO)C(O)C(O)C1O (stereo not shown) | SK-HEP1 | cell growth or viability, XTT |  | 47 h |  | IC50 | 3.38 µM |
| C#CCN1C(=O)C(CC#C)(C(=O)OCC)Oc2ccccc21 (stereo not shown) | L02 | cell growth or viability, CCK-8 |  | 3.13 µM, 72 h |  | inhibition | 0.39% |
| CSCC[C@H](NC(=O)[C@@H](NC(=O)[C@H](CCC(N)=O)NC(=O)[C@H](CO)NC(=O)[C@@H](N)C(C)C)[C@@H](C)O)C(=O)N[C@@H](CCCNC(=N)N)C(=O)N[C@@H](CCC(N)=O)C(=O)N[C@H](C(=O)N[C@@H](C)C(=O)N[C@H](C(=O)N1CCC[C@H]1C(=O)N[C@@H](CC(C)C)C(=O)N[C@@H](CC(C)C)C(=O)N[C@@H](Cc1c[nH]c2ccccc12)C(=O)N[C@@H](Cc1ccccc1)C(=O)N[C@@H](Cc1c[nH]c2ccccc12)C(=O)N[C@H](C(=O)NCC(=O)N[C@@H](CO)C(=O)N[C@@H](CC(C)C)C(=O)NCCOCCOCCOCCOCCOCCOCCOCCOCCOCCOCCOCCOCCC(=O)N[C@@H](CS)C(N)=O)[C@@H](C)O)C(C)C)[C@@H](C)O | HCC1171 lung carcinoma | cell binding, phage binding, item: output/input phage |  | 10 min, 37 °C | relative to: control phage | selectivity ratio | 27 ± 3.1 |
| CCOC(=O)C1(Cc2ccccc2)Oc2cc(F)ccc2N(Cc2ccccc2)C1=O (stereo not shown) | HaCaT | cell growth or viability, CCK-8 |  | 1.56 µM, 72 h |  | inhibition | 0.21% |
| COc1ccccc1-c1n[nH]c2nc(N[C@H]3CC[C@H](NS(=O)(=O)CC(C)C)CC3)ncc12 |  | bead binding, competition bead pull-down, item: LINJ.34.3370 | Leishmania donovani extract | 10 µM | relative to: vehicle | relative abundance | 0.8 |
| Cc1cc(Oc2nc(N3CC[C@@H](c4ccncc4)C3)ncc2F)[nH]n1 | HT-29 | cell proliferation | colon cancer |  |  | IC50 | 30.2 µM |
| CNC(=S)N/N=C/c1ccc(OCc2ccccc2)cc1 | IMR-32 |  |  | 200 µg/mL, 24 h | higher = more activity | catalase activity (OD450) | 0.036 a.u. |
| O=C1NC2(CC2)COc2ncc(F)cc2[C@H]2COCCN2c2ccn3ncc1c3n2 |  |  | Sprague-Dawley rat, female, heart | oral, 20 mg/kg/day, 4 weeks dosing, end of recovery |  | organ-to-brain weight ratio | 58.8 ± 2.68% |
| COc1ccccc1-c1n[nH]c2nc(NC3CCN(C(=O)Cc4ccc(F)cc4F)CC3)ncc12 |  | bead binding, competition bead pull-down, item: LMJF.31.2280 | Leishmania donovani axenic amastigote extract | 10 µM | relative to: vehicle | relative abundance | 1.08 |

Some of these lines once more:
| SMILES | target or system | test | test system | setting | scale | measurement | value |
| --- | --- | --- | --- | --- | --- | --- | --- |
| O=C1C=CC(=O)c2c(O)cccc21 | HuCC-A1 | MTT |  |  | relative to: IC50 MRC-5 over IC50 HuCC-A1 | selectivity index | 2.12 |
| O=C1NC(=O)c2c1c1cc(F)c[n+]3c1c1c2c2cc(O)ccc2[n]1[Ru-4]312([N]=C=S)[S+]3CC[S+]1CC[S+]2CC3 (stereo not shown) | AXL (Homo sapiens, UniProt P30530) | enzyme activity |  | 100 nM, human enzyme, added: 10 µM ATP | relative to: untreated | remaining activity | 63% |
